Assay results from different studies.
Each numbered part is a random draw from the data of one study; scales do not carry over between parts. Positions count from the first letter of the parent shown.

Set 1 — method: DHFR PCA, deep sequencing; matrix: yeast; together with: (+)-ABA 0.39 µM; baseline: wild-type fitted maximum; reading: higher = stronger binding
Target: ABI1, truncated, D143A, DHFR fusion (Arabidopsis thaliana)
Setting: methotrexate growth selection, single substitutions
Parent: PYL1, truncated, DHFR fusion (Arabidopsis thaliana); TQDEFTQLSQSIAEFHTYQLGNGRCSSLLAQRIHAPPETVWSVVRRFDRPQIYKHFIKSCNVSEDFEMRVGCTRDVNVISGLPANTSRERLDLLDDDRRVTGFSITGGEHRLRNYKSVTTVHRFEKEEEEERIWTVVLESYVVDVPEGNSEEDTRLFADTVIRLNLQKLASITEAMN
| Substitution | relative binding score |
| --- | --- |
| E64I | 8.53% |
| L166T | 4.74% |
| T1Y | 43.2% |
| E139Q | 49.6% |
| Q167D | -1.03% |
| E174M | -13.6% |
| G148N | 0.293% |
| T39G | 0.436% |
| F47D | 14.2% |
| T17A | 20.1% |
| S42I | -1.86% |
| G108C | 1.99% |
| N177K | 35.7% |
| P146V | 19.3% |
| W41Y | 6.34% |

Set 2 — method: protein binding microarray; form: double-stranded DNA, one strand shown; matrix: in vitro; concentration: not given; baseline: not given; reading: higher = stronger binding
Target: Histone acetyltransferase KAT6A, winged helix 2, GST fusion (KAT6A, Homo sapiens, UniProt Q92794, residues 85-181)
Setting: 8-mer, flanks averaged, mean of 2 arrays, mostly near background
Target sequence (chain): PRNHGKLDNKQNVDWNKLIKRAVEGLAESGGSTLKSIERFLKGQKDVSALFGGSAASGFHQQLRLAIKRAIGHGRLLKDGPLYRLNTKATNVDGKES
| Strand | E-score |
| --- | --- |
| CGAGTCCC | -0.0203 |
| CGGACAAA | -0.000605 |
| GATGAGCC | 0.0163 |
| ACGCAACT | 0.1 |
| ATATCGTC | -0.134 |
| CTAACACA | 0.0579 |
| AAACCTAG | 0.0564 |
| ACTTACCA | -0.131 |
| CGATAAAA | 0.107 |
| AGGATCTC | -0.0915 |
| CTGTGAAA | -0.000695 |
| AATCAAGC | 0.0889 |
| AAAAATTC | -0.0941 |
| AGGACTTG | -0.203 |
| ACGGGCGC | 0.232 |
| CAAGAACG | 0.159 |
| CCGGGCAC | 0.111 |
| CTACCAAA | -0.0432 |
| AGTCGCAC | -0.154 |
| CCAGTTGC | 0.0345 |
| AATCCGCT | 0.0336 |
| CTGGCGGA | 0.0142 |

Set 3 — method: RNA Bind-n-Seq; form: RNA; matrix: in vitro; concentration: 1 µM; setting: whole 134-nt RNA, ends assumed; together with: 150 mM KCl; baseline: input library; reading: higher = stronger binding
Target: Ras GTPase-activating protein-binding protein 1, RRM domain (G3BP1, Homo sapiens, UniProt Q13283)
Sequence of UniProt Q13283 (whole entry, looked up): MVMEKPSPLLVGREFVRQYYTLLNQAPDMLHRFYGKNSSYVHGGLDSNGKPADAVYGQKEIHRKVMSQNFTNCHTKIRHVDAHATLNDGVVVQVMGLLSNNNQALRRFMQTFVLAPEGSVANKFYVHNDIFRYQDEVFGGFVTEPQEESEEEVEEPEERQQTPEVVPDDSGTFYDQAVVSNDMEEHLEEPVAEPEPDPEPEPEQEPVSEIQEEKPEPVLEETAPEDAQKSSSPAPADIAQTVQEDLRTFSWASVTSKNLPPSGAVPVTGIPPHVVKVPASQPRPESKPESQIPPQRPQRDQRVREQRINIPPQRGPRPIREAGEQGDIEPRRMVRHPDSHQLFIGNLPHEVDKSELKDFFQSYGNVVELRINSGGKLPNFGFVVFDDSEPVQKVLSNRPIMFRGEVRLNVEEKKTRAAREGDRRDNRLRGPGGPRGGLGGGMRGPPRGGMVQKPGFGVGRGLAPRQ
Constant ends, left off below: GGGAGUUCUACAGUCCGACGAUC … UGGAAUUCUCGGGUGUCAAGG
| Strand | log2 enrichment |
| --- | --- |
| GCAGGAAGUAAAAACAAAUGGAAAUGCUUCGGAUAGUGGCAGGGGUGGGGGUUGCUAAGGAAAGGGUGGGAUGGGAGAAAGUAAAGAGUU | 0.687 |
| CACAGACAACACGCACCCACACAGACACAGAGGGAAGGGGUUGGGAUGCGGACAGGGUGCACAGCAGGGCGGGGUAGGACCCCAGCCCCU | 0.342 |
| GCAGGAAGUAAAAACAAAUGGAAAUGCUUCGGAUAGUGGCAGGGGUGGGGGUUGCUAAGGAAAGGGUGGGUUGGGAGUGGGUAAAGAGUU | 0.987 |
| UCCUCAAGUCCUGUGCUACACAUCGUAUGUACCGAAUCGGCGGGCGGGCGGAAAGUAUUAUGUUACGCCGUUCGGAUCUGCACUUCCAGC | -0.293 |
| UGGCCCUGGUGGCAUGUGGGGAGGAAGAGGUGGCCUCAUGGAUCGUGGUGGUCCCGGUGGAAUGUUCAGAGGUGGCCGUGGUGGAGACAG | 0.778 |
| GCAGGAAAUAAAAACAAAUGGAAAUGCUUCGGAUAGUGGCAGGGGUGGGGGUUGCUAAGGAAAGGGUGGGAUGGGAGUGGGUAAAGAGUU | 1.22 |
| CACAGACAACACGCACCCACACAGACACAGAGGGAAGCGGUUGGGAUGGGGACAGGGUGCACAGCAGGGCGGGGUAGGACCCCAGCCCCU | -0.137 |
| CUCAAGUCCUGUGCUACACAUCGUAUGUACCGAAUCGGUGGUUUGGAAAAAGGAAAGUAUUAUGUUACGCCGUUCGGAUCUGCACUUCCA | -0.189 |
| UUUGCAGGAUUAAUCACUCCUGAAGAUCGGAAAUAUGGAACAACAAAUCUUCACUUAGAUGUAUCUGAUGCAGCUAAUGUCAUGGUCUAU | -0.153 |

Set 4 — method: aptamer microarray, sandwich; form: DNA with 2'F-ANA; matrix: in vitro; concentration: 200 nM; together with: Cy3 exosite-II aptamer, 400 nM; reading: higher = stronger binding; strand: GGTTGGTGTGGTTGG
Target: Prothrombin, mature alpha-thrombin (F2, Homo sapiens, UniProt P00734)
Setting: whole 15-mer aptamer, many near background
| Modification | mean fluorescence intensity [a.u.] |
| --- | --- |
| 2'F-ANA at 3 8 9 14 15 | 623 |
| 2'F-ANA at 1 4 5 8 9 11 15 | 110 |
| 2'F-ANA at 1 2 3 7 8 9 10 11 13 14 15 | 61.5 |
| 2'F-ANA at 3 4 7 8 9 13 14 15 | 285 |
| 2'F-ANA at 4 8 9 10 12 | 109 |
| 2'F-ANA at 1 4 6 8 11 12 15 | 205 |
| 2'F-ANA at 1 3 4 6 8 10 11 13 | 50.7 |
| 2'F-ANA at 3 4 6 8 9 11 14 | 240 |
| 2'F-ANA at 1 2 3 9 11 12 14 | 81.8 |
| 2'F-ANA at 4 6 8 10 11 12 14 15 | 58.2 |
| 2'F-ANA at 2 3 4 5 6 8 9 11 12 13 14 15 | 54.8 |
| 2'F-ANA at 1 3 4 5 9 12 13 15 | 70.8 |
| 2'F-ANA at 1 3 7 8 9 10 12 15 | 127 |
| 2'F-ANA at 1 4 5 7 8 9 14 | 59.7 |
| 2'F-ANA at 3 8 9 10 12 13 15 | 515 |
| 2'F-ANA at 2 4 10 11 13 14 | 60.9 |
| 2'F-ANA at 1 3 4 5 6 10 11 15 | 46.5 |
| 2'F-ANA at 1 2 3 4 10 11 12 13 15 | 65.2 |
| 2'F-ANA at 4 5 7 8 10 13 15 | 56.2 |
| 2'F-ANA at 3 4 5 6 7 9 13 | 57.3 |
| 2'F-ANA at 2 3 6 7 13 14 | 394 |
| 2'F-ANA at 1 5 7 9 10 12 13 14 | 46.8 |
| 2'F-ANA at 3 4 5 6 9 13 | 62.7 |
| 2'F-ANA at 1 2 4 5 6 9 14 | 46.5 |
